Assay results pooled from the literature.
Each line is one published result; not all experiments were run side by side. Values joined by “and” are separate records of one study, mostly repeats; a detail may differ. ± gives the spread as reported.
UCHL1: Ubiquitin carboxyl-terminal hydrolase isozyme L1 (UCHL1, Homo sapiens, UniProt P09936)
BEST1: BEST1 (Homo sapiens, UniProt O76090)
ADRA2C: Alpha-2C adrenergic receptor (ADRA2C, Homo sapiens, UniProt P18825)
TOP2B: DNA topoisomerase 2-beta (TOP2B, Homo sapiens, UniProt Q02880)
TNKS: Poly [ADP-ribose] polymerase tankyrase-1 (TNKS, Homo sapiens, UniProt O95271)
Voltage-dependent P/Q-type calcium channel subunit alpha-1A: Voltage-dependent P/Q-type calcium channel subunit alpha-1A (Homo sapiens, UniProt O00555)
T1: RNA aptamer C48U/G52A, 5'-triphosphate, 2',3'-cyclic phosphate; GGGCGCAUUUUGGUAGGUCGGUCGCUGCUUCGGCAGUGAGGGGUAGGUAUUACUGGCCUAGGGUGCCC
T2: G-quadruplex DNA human telomere fragment (Homo sapiens); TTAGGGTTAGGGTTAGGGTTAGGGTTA

Nc1nc2c(ncn2[C@@H]2O[C@H](COP(=O)(O)OP(=O)(O)OP(=O)(O)O)[C@@H](O)[C@H]2O)c(=O)[nH]1
Kd (T1, RNA aptamer C48U/G52A, 5'-triphosphate, 2',3'-cyclic phosphate; ITC): 0.0282 µM

C#CC(CC1CCC1)NS(=O)(=O)c1cccc(Cl)c1O (stereo not drawn)
remaining activity (malate dehydrogenase; enzyme activity, inhibitor; 200 µM, pH 7.0, 1% DMSO, aggregation counter-screen): 106%

Cc1ccc(C=C(C#N)C(=O)Nc2ccccc2C(F)(F)F)cc1
labelling (UCHL1; covalent, intact protein LC-MS; 12.5 µM): 9.26%

COc1ccc(-c2csc(CNS(=O)(=O)c3cnn(C)c3C(=O)O)n2)cc1
remaining activity (malate dehydrogenase; enzyme activity, inhibitor; 200 µM, pH 7.0, 1% DMSO, aggregation counter-screen): 85%

Nc1ccc(C(=O)O)cc1
current density (BEST1; whole-cell patch clamp; HEK293 transiently expressing channel; concentration not given, membrane potential 20 mV): 18.6 pA/pF and 17.5 pA/pF and 12.5 pA/pF and 10.7 pA/pF and 11.1 pA/pF and 22.1 pA/pF and 23 pA/pF

Cc1[nH]nc(S(=O)(=O)NCc2ccc(Br)cc2C(F)(F)F)c1C(=O)O
remaining activity (malate dehydrogenase; enzyme activity, inhibitor; 200 µM, pH 7.0, 1% DMSO, aggregation counter-screen): 93%

[O-][S+]1CCCCS1 (stereo not drawn)
target engagement (SOD1 (Homo sapiens, UniProt P00441, G94A); intact protein LC-MS; SOD1 G93A transgenic mice, whole blood; oral, 150 mg/kg, 24 h, mean of two mice): 43.7 % cross-linked dimer

Cc1c(C(=O)Nc2ccccc2C(=O)O)oc2c1C(O)CC(C)(C)C2 (stereo not drawn)
luminescence (B4GALT1 (Homo sapiens, UniProt P15291); enzyme activity, inhibitor, UDP-Glo; 10 µM; lower means stronger inhibition): 63000 a.u.

CC[C@H](C)[C@H](NC(=O)[C@H](CCCCN)NC(=O)[C@H](CCCNC(=N)N)NC(=O)[C@H](CC(C)C)NC(=O)[C@H](CCC(N)=O)NC(=O)[C@H](C)NC(=O)[C@H](C)NC(=O)[C@H](Cc1ccccc1)NC(=O)[C@H](CCC(=O)O)NC(=O)[C@@H]1CCCN1C(=O)[C@@H]1CCCN1C(=O)[C@H](CC(C)C)NC(=O)[C@H](CCC(=O)O)NC(=O)[C@H](C)NC(C)=O)C(=O)NCC(=O)N[C@@H](CC(=O)O)C(=O)N[C@@H](CCCCN)C(=O)N[C@H](C(=O)N[C@@H](Cc1ccc(O)cc1)C(=O)N[C@@H](CS)C(N)=O)C(C)C
Ki (BCL2L2 (Homo sapiens, UniProt Q92843); fluorescence polarisation competition; 2 h, 25 °C, incomplete curve, with: 25 nM fluorescein-Bim): ~9.9 µM

COc1ccccc1N1CCN(Cc2cccnc2Oc2ccc(-c3c(C)c(=O)[nH]c(=O)n3C)c(C)c2)CC1
selectivity ratio (ADRA2C; binding, radioligand binding; with: [3H]rauwolscine; reference: Ki alpha2B over Ki alpha2C): 11

O=c1nc(SCc2cc(F)cc(C(F)(F)F)c2)nc(SCc2ccc3nc(Cl)ccc3c2)[nH]1
decatenated DNA (TOP2B; decatenation; 15.6 µM, replicate 2): 24.5%

CC(=O)N[C@@H](Cc1c[nH]cn1)C(=O)N[C@@H](CC(=O)O)C(=O)N1CCC[C@H]1C(=O)N1CCC[C@H]1C(=O)N[C@@H](CC(C)C)C(=O)N[C@@H](Cc1c[nH]cn1)C(=O)N[C@@H](CO)C(=O)N[C@H](C(=O)N[C@@H](C)C(N)=O)[C@@H](C)OP(=O)(O)O
binding stoichiometry (PLK1 (Homo sapiens, UniProt P53350); polo-box domain binding, isothermal titration calorimetry; concentration not given, 25 °C): 1.01

NCCCCC(=O)O
fraction bound (SLC6A6 (Homo sapiens, UniProt P31641, Y138A); binding, microscale thermophoresis; 32.7 nM, fitted curve; higher = more binding): 0

Cc1ncsc1-c1ccc(CNC(=O)[C@@H]2C[C@@H](O)CN2C(=O)[C@@H](NC(=O)C2(F)CC2)C(C)(C)C)c(OCCOc2ccc(CN3CCN(c4cc(-c5ccccc5O)nnc4N)CC3)cc2)c1
cooperativity factor alpha (SMARCA2 bromodomain, human; ternary complex binding, TR-FRET competition; with: VCB R69A mutant): 3.3

CN1CCN(c2cc(-c3ccncc3)c(-c3ccc4ccccc4c3)nn2)CC1
activation (CCR3 (Homo sapiens, UniProt P51677); agonist, FLIPR; 12.5 µM): -0.9%

CCC(=O)NS(=O)(=O)c1ccc(-c2c(-c3ccccc3)noc2C)cc1
activation (Nuclear receptor subfamily 1 group I member 3 (Homo sapiens, UniProt Q14994); reporter gene, Gal4 hybrid reporter; 50 µM; reference: vehicle): 0.99 fold

O=C(O)c1ccc(O)cc1
current density (BEST1; whole-cell patch clamp; HEK293 transiently expressing channel; concentration not given, membrane potential 0 mV): 0.08 pA/pF and 0.06 pA/pF and -0.08 pA/pF and -0.09 pA/pF and 0.07 pA/pF and 0.05 pA/pF and 0.02 pA/pF

CCCc1ccc(-c2csc(NC(=O)CCl)n2)cc1
labelling (UCHL1; covalent, intact protein LC-MS; 12.5 µM): 14.2%

NC(=O)c1ccc[n+]([C@@H]2O[C@H](COP(=O)([O-])OP(=O)(O)OC[C@H]3O[C@@H](n4cnc5c(NCCNC(=O)CCCCCNC(=O)CCCCCNC(=O)CCCC[C@@H]6SC[C@@H]7NC(=O)N[C@@H]76)ncnc54)[C@H](O)[C@@H]3O)[C@@H](O)[C@H]2O)c1
apparent Km (TNKS; enzyme activity, substrate, DELFIA; with: histone H1): 5 µM

NCCNC(=O)c1ccc(Cl)cn1
IC30 (Voltage-dependent P/Q-type calcium channel subunit alpha-1A; ion current, antagonist, automated patch clamp): > 30 µM

Nc1ncnc2c1ncn2[C@@H]1O[C@H](COP(=O)(O)OP(=O)(O)OP(=O)(O)O)[C@@H](O)[C@H]1O
hydrolysis rate (Acyl-coenzyme A oxidase acox-1.1 (acox-1.1, Caenorhabditis elegans, UniProt O62140); substrate, HPLC; 50 µM, with: lauroyl-CoA and acyl-CoA oxidase): 0.00139 s⁻¹

CN(C)C(=O)C(CCN1CCC(O)(c2ccc(Cl)cc2)CC1)(c1ccccc1)c1ccccc1
effective gating valence (Calcium-activated potassium channel subunit alpha-1, with LRRC26 γ1 subunit (KCNMA1, Homo sapiens, UniProt Q12791); BK current, inside-out patch clamp; excised membrane patch; 1 µM, γ1 coexpressed, individual fits, with: nominally 0 Ca2+ cytosolic): 1.38 ± 0.2 elementary charges

O=C(Cc1n[nH]c(=O)c2ccccc12)OCC(=O)N1CCN(c2ccccn2)CC1
ligand efficiency (TNKS; enzyme activity, inhibitor): 0.49

COC(=O)C(C#N)=Cc1cc(CSc2nnc(N)s2)cs1
labelling (UCHL1; covalent, intact protein LC-MS; 12.5 µM): 14.5%

CC[C@@H]1[C@H](F)C(=O)N[C@@H]1COc1nccc2cc(C(N)=O)c(OC)cc12
inhibition (TLK2 (Homo sapiens, UniProt Q86UE8); ATP-site probe binding, ActivX profiling; THP-1 cell lysate; 0.04 mM, Lys2 site): 9.2%

Nc1nc2c(ncn2[C@@H]2O[C@H](COP(=O)(O)O)[C@@H](O)[C@H]2O)c(=O)[nH]1
reaction rate (GUK1 (Homo sapiens, UniProt Q16774, Y81A); enzyme activity, NADH-coupled; 62.5 µM): 1.78 s⁻¹ and 1.86 s⁻¹ and 1.38 s⁻¹

CC#CC(=O)N1CCC(CNC(=O)c2ccc(C)c(F)c2)CC1
labelling (UCHL1; covalent, intact protein LC-MS; 12.5 µM): 12.3%

Cc1cn(C2CCN(Cc3cccc(Oc4cccc(OC(F)(F)F)c4)c3)CC2)c(=O)[nH]c1=O
highest concentration tested (Thymidylate kinase (DTYMK, Homo sapiens, UniProt P23919); enzyme activity, inhibitor; no inhibition observed): > 40 µM

NCCOc1cc(C(=O)Nc2cc(OCCN)c3ccccc3n2)nc(C(=O)Nc2cc(OCCN)c3ccccc3n2)c1
Kd (T2, G-quadruplex DNA human telomere fragment (Homo sapiens); laser tweezers; 30 s, KCl 100 mM, single-site fit): 0.49 µM

COc1ccc(NC(=O)C(C#N)=Cc2c(Cl)nc3ccccn23)cc1
labelling (UCHL1; covalent, intact protein LC-MS; 12.5 µM): 15%

C=CC(=O)N1CCC(COCC(=O)N2CCN(c3nc(-c4cnc(N)nc4C(F)F)nc(N4CCOC[C@@H]4C)n3)CC2)CC1
remaining binding (NEK10 (Homo sapiens, UniProt Q6ZWH5); KINOMEscan; 1 µM): 100%

Cc1cc(Oc2ncccc2CN2CCN(c3ccc(C(F)(F)F)cn3)CC2)ccc1-c1c(C)c(=O)[nH]c(=O)n1C
selectivity ratio (ADRA2C; binding, radioligand binding; with: [3H]rauwolscine; reference: Ki alpha2B over Ki alpha2C): 11

O=C(O)CC(CNS(=O)(=O)c1cccc(Cl)c1O)c1ccc(Br)s1 (stereo not drawn)
remaining activity (malate dehydrogenase; enzyme activity, inhibitor; 200 µM, pH 7.0, 1% DMSO, aggregation counter-screen): 79%

Cc1ccc(CNC(=O)Cn2cc(CSc3nc4ccccc4[nH]3)nn2)cc1
geometric mean inhibition (DNA topoisomerase I (calf thymus); enzyme activity, inhibitor; MDA-MB-231; 50, 100, 500 ppm, 30 min, 37 °C): 51.9%

Cc1cc(Nc2cc(N3CCN(C)CC3)nc(Sc3ccc(NC(=O)C4CC4)cc3)n2)[nH]n1
remaining activity (Lyn (Mus musculus, UniProt P25911); kinase activity, KinaseProfiler; 0.03 µM, species mouse; reference: control): 96%

C#CCOc1ccccc1C=NNC(=O)c1ccc(OC)cc1
labelling (UCHL1; covalent, intact protein LC-MS; 12.5 µM): 2.9%

c1ccc(C(NCc2cccnc2)(c2ccccc2)c2ccccc2)cc1
slope of normalized current vs voltage (KCNQ1 (Homo sapiens, UniProt P51787); 100 pM, end-pulse currents above -10 mV): 2 V⁻¹

N#Cc1nc(COc2ccccc2F)oc1N1CCC(C(N)=O)CC1
labelling (UCHL1; covalent, intact protein LC-MS; 12.5 µM): 16.1%

Cc1nc(CSc2nc(SCc3ccc(C(C)C)cc3)nc(=O)[nH]2)cs1
mean decatenated DNA (TOP2B; decatenation; 15.6 µM): 90.8%

C=CC[C@@H]1c2ccc(OC)c(OC)c2CN2CCc3cc4c(cc3[C@H]12)OCO4
inhibition ratio (P2X purinoceptor 7 (P2rx7, Mus musculus, UniProt Q9Z1M0, A312V); ATP-evoked current, inhibitor, whole-cell patch clamp; HEK293 transfected; 1 µM, mutant A312V, with: ATP 1 mM; reference: ATP alone): 0.513 and 0.507 and 0.548

C=CC(=O)N1CCC[C@@H](n2nc(-c3ccc(Oc4ccccc4)cc3)c3c(N)ncnc32)C1
remaining activity (TEC (Homo sapiens, UniProt P42680); 0.1 µM): 134%

O=c1nc(SCc2cc(F)cc(C(F)(F)F)c2)nc(SCc2ccc3sccc3c2)[nH]1
decatenated DNA (TOP2B; decatenation; 125 µM, replicate 2): 0%

C=CC(=O)N1CCC(C(=O)NCC(=O)N2CCN(c3nc(-c4cnc(N)nc4C(F)F)nc(N4CCOCC4)n3)CC2)CC1
remaining binding (MET (Homo sapiens, UniProt P08581); KINOMEscan; 1 µM): 75%

CC[C@H](C)C(=O)O[C@H]1C[C@H](O)C=C2C=C[C@H](C)[C@H](CC[C@@H](O)C[C@@H](O)CC(=O)O)[C@H]21
IC30 (Voltage-dependent P/Q-type calcium channel subunit alpha-1A; ion current, antagonist, automated patch clamp): > 30 µM

Nc1ncnc2c1ncn2[C@@H]1O[C@H](COP(=O)(O)CP(=O)(O)OP(=O)(O)O)[C@@H](O)[C@H]1O
calcium influx (P2X purinoceptor 1 (P2RX1, Homo sapiens, UniProt P51575, R292A); calcium influx; 31.6 nM; reference: ionomycin response): 0.178% and 0.496% and 1.17%

COc1cc(-c2cncc3c2CN(C)Cc2cc(N4CCNCC4)ccc2-3)cc(OC)c1OC
remaining activity (BTK (Homo sapiens, UniProt Q06187, R28H); kinase activity; 1 µM, with: ATP 10 µM; reference: DMSO control): 102%

CC/C=C(\C)C=O
conversion (Uncharacterized protein PH0856 (Pyrococcus horikoshii, UniProt O58586); substrate; pH 8, 30 °C, aerobic, with: NADH): 15%

Nc1nc2c(ncn2[C@@H]2O[C@@H]3COP(=O)(O)O[C@H]3[C@H]2O)c(=O)[nH]1
relative binding EC50 ratio (cGMP antibody; acetylated EIA; reference: EC50 cGMP over EC50 analogue): 1

NS(=O)(=O)c1cccc2cc(NC(=O)CCl)ccc12
labelling (UCHL1; covalent, intact protein LC-MS; 12.5 µM): 11.5%

O=C1CC2(CCCC2)CC(=O)N1CCCCN1CCN(c2ncccn2)CC1
IC30 (Voltage-dependent P/Q-type calcium channel subunit alpha-1A; ion current, antagonist, automated patch clamp): > 30 µM

Cc1cc(Oc2ncccc2CN2CCN(c3cccc(F)c3)CC2)ccc1-c1c(C)c(=O)[nH]c(=O)n1C
selectivity ratio (ADRA2C; binding, radioligand binding; with: [3H]rauwolscine; reference: Ki alpha2B over Ki alpha2C): 3
